Assay results collected from several papers.
Numbered parts are unrelated; each lists some results of a single study. pIC50: −log10 of the molar value.
Sequence of UniProt O75582 (whole entry, looked up): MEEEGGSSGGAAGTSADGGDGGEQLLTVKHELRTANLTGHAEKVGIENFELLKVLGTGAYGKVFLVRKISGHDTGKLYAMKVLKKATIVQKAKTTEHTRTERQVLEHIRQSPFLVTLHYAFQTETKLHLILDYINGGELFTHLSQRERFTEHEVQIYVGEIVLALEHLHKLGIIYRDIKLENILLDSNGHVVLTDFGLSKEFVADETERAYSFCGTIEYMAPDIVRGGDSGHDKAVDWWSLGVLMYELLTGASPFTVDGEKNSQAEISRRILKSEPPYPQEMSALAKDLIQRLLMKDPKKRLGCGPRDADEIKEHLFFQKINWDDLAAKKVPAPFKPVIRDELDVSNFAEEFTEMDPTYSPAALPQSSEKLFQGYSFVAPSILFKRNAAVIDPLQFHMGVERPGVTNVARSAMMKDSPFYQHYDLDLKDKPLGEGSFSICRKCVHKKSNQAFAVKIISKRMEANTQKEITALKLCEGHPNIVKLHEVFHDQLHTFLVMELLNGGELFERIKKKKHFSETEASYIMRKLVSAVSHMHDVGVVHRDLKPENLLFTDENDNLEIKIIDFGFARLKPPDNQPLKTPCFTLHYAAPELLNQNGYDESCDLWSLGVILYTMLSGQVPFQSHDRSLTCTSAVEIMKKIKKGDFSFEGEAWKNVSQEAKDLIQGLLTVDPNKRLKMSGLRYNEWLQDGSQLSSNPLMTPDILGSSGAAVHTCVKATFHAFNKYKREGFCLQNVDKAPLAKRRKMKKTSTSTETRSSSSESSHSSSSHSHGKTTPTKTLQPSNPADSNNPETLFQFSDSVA
Sequence of UniProt P23458 (whole entry, looked up): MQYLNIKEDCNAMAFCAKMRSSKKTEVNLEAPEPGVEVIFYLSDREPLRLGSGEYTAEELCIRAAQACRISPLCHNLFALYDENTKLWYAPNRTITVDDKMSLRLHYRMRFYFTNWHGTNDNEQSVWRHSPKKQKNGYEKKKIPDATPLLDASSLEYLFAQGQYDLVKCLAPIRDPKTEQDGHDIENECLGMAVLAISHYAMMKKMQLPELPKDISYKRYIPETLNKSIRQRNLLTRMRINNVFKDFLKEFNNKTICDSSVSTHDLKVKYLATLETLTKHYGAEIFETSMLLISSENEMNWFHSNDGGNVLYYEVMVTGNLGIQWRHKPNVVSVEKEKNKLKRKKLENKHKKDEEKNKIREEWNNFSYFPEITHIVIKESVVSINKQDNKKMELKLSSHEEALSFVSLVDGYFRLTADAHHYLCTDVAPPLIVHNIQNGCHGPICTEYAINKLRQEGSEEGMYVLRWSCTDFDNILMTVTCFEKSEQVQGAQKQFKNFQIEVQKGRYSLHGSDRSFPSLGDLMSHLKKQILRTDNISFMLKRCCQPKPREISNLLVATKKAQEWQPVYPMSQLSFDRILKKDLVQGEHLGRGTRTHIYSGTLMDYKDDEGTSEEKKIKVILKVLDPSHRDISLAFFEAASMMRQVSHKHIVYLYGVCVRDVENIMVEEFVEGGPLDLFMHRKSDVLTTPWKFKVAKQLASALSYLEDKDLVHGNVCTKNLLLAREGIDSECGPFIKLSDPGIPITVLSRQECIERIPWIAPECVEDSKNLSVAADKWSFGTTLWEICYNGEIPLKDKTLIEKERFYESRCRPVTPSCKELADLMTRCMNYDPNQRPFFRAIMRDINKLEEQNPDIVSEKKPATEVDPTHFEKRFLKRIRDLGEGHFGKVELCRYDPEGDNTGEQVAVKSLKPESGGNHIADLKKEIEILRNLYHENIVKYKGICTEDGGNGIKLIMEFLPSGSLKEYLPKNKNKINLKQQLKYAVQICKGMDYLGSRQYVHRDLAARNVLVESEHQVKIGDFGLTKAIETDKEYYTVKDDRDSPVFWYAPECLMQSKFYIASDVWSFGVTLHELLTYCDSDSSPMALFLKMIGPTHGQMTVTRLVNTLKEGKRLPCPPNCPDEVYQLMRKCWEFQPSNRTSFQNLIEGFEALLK
Sequence of UniProt Q00535 (whole entry, looked up): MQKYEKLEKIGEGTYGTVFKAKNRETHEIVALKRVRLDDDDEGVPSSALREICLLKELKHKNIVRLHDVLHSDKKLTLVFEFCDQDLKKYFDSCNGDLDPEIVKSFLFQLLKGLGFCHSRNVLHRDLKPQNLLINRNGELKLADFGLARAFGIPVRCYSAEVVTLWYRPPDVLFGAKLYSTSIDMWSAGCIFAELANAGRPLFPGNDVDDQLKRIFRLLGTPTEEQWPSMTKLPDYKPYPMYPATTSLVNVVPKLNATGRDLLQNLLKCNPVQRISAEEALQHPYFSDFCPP
Sequence of UniProt Q13882 (whole entry, looked up): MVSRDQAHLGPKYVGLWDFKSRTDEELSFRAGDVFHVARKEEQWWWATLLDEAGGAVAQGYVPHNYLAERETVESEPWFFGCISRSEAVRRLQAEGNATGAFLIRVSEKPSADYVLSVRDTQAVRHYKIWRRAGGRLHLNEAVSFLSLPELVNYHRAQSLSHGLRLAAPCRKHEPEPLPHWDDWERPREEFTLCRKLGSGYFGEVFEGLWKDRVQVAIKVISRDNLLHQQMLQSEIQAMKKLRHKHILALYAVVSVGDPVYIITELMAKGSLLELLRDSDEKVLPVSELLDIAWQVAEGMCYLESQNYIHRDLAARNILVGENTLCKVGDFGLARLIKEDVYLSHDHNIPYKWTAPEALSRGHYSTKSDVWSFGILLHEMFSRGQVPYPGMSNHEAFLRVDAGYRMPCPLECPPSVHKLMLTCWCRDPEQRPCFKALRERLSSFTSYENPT
Sequence of UniProt P50613 (whole entry, looked up): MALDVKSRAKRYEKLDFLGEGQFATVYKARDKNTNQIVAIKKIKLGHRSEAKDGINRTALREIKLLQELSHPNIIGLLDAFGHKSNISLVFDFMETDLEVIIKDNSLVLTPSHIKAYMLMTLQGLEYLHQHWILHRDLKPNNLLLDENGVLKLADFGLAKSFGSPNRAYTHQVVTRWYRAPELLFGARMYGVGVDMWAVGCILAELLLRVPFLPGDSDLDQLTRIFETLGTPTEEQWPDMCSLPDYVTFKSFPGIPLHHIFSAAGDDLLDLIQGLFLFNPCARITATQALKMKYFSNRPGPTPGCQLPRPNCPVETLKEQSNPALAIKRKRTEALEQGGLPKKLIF

Study 1 — target: panel of 300 human kinases; concentration: 0.5 µM; reading: higher = more selective
For `Cc1cc(Nc2cc(N3CCN(C)CC3)nc(Sc3ccc(NC(=O)C4CC4)cc3)n2)[nH]n1`, the Gini score was 0.68.
With `Nc1ncnc2c1c(-c1ccc(Oc3ccccc3)cc1)cn2C1CCCC1` the Gini score was 0.75.
The Gini score of `c1ccc(-c2n[nH]c3c2oc2ccccc23)cc1` is reported as 0.64.
With `Nc1[nH]nc2nnc(-c3c(-c4ccccc4)nn4ccccc34)cc12` the Gini score was 0.7.
With `COc1ccc(COc2ccc(Cc3cnc(N)nc3N)cc2OC)cc1` the Gini score was 0.75.

Study 2 — mode: antagonist
Target: Beta-1 adrenergic receptor (ADRB1, Homo sapiens, UniProt P08588)
Sequence of UniProt P08588 (whole entry, looked up): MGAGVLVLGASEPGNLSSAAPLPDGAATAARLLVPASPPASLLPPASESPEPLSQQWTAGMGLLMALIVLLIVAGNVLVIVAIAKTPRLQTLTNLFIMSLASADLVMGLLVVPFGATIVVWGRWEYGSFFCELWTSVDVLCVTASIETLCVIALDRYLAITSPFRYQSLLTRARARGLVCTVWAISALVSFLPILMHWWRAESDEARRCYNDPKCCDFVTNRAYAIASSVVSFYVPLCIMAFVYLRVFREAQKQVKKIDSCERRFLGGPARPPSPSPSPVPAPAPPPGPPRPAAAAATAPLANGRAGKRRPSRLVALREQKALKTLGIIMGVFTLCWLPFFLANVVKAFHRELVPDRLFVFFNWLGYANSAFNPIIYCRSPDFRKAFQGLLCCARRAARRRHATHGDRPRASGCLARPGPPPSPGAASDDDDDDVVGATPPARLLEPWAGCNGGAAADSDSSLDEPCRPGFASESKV
For `COCCNCc1ccc(-c2cc3nccc(Oc4ccc(NC(=S)NC(=O)Cc5ccc(F)cc5)cc4F)c3s2)nc1`, the pIC50 was at most 4.00.
For `Cc1noc(C)c1-c1cc2cc(C(C)C)oc2c(NCCN2CCOCC2)n1`, the pIC50 was at most 4.00.
For `CC[C@@H]1OC(OC(c2c[nH]cn2)C(NC(=O)c2nc(C(CC(N)=O)NCC(N)C(N)=O)nc(N)c2C)C(=O)NC(C)C(O)C(C)C(=O)NC(C(=O)NCCc2nc(-c3nc(C(=O)NCCCCNC(=N)N)cs3)cs2)C(C)O)[C@@H](O[C@H]2O[C@H](CO)[C@@H](O)[C@H](OC(N)=O)[C@@H]2O)[C@@H](C)[C@@H]1C` (stereo partly shown), the pIC50 was 5.00.
`O=c1cc(N2CCNCC2)oc2c(-c3ccccc3)cccc12` gave a pIC50 of at most 4.00.
The pIC50 of `COc1cc(CN2CCOCC2)ccc1OCC(O)CN1CCSCC1` (stereo not shown) is reported as at most 4.00.
For `COc1ccc(C(=O)NC[C@H]2O[C@@H](CC(=O)N3CCN(c4ccccc4OC)CC3)[C@H](O)[C@@H]2O)cc1`, the pIC50 was at most 4.00.
With `COc1ccccc1N1CCN(C(=O)c2ccc(C)s2)CC1` the pIC50 was at most 4.00.
With `COc1ccccc1N1CCC(CNC(=O)c2ccc(C)s2)C1` (stereo not shown) the pIC50 was at most 4.00.

Study 3 — observed: enzyme activity; mode: inhibitor; concentration: 10 µM
Target: Calcium/calmodulin-dependent protein kinase type II subunit alpha (CAMK2A, Homo sapiens, UniProt Q9UQM7)
Sequence of UniProt Q9UQM7 (whole entry, looked up): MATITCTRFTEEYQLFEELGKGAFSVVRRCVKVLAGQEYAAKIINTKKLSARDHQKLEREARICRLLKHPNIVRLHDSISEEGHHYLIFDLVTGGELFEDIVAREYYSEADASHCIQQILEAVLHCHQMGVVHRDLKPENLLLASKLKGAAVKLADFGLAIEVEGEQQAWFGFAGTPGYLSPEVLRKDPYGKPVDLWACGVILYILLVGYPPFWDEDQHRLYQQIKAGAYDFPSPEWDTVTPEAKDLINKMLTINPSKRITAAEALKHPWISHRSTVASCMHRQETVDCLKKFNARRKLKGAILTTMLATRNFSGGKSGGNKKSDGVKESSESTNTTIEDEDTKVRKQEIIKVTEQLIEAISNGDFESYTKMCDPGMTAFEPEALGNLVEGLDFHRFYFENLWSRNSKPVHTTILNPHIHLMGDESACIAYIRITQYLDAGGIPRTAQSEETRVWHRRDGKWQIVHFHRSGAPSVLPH
With `CC(C)C[C@H](NP(=O)(O)O[C@@H]1O[C@@H](C)[C@H](O)[C@@H](O)[C@H]1O)C(=O)N[C@@H](Cc1c[nH]c2ccccc12)C(=O)O` the inhibition was -36%.
With `C=CC1(C)CCC(C(C)(C)O)O1` (stereo not shown) the inhibition was 9%.
The inhibition of `C=C1C[C@@]23CC[C@H]4[C@@](C)(CCC[C@@]4(C)C(=O)O[C@@H]4O[C@H](CO)[C@@H](O)[C@H](O)[C@H]4O)[C@@H]2CC[C@]1(O[C@@H]1O[C@H](CO)[C@@H](O)[C@H](O)[C@H]1O[C@@H]1O[C@H](CO)[C@@H](O)[C@H](O[C@@H]2O[C@H](CO)[C@@H](O)[C@H](O)[C@H]2O)[C@H]1O)C3` is reported as 36%.
For `COc1ccc(C[C@@H]2c3cc(OC)c(OC)cc3CC[N@+]2(C)CCC(=O)OCCCCCOC(=O)CC[N@@+]2(C)CCc3cc(OC)c(OC)cc3[C@H]2Cc2ccc(OC)c(OC)c2)cc1OC`, the inhibition was -12%.

Study 4 — mode: degrader; technique: HiBiT; cell line: HEK293; concentration: 1111.11 nM
Target: CRBN/Zinc finger protein Helios (Homo sapiens, UniProt Q96SW2+Q9UKS7)
Sequence of UniProt Q9UKS7 (whole entry, looked up): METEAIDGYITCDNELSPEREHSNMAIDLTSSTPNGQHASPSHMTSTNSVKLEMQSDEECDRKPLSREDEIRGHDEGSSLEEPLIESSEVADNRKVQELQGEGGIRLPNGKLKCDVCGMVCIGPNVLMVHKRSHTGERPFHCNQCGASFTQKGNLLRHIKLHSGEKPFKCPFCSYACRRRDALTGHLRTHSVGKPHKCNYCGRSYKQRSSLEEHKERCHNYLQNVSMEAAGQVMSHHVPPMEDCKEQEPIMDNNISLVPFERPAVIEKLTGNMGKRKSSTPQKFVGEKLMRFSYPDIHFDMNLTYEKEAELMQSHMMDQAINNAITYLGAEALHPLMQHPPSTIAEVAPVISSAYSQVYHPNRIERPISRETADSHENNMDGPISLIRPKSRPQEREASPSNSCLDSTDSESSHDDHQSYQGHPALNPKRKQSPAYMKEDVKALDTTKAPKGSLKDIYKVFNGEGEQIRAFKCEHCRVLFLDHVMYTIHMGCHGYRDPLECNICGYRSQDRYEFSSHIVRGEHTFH
Sequence of UniProt Q96SW2 (whole entry, looked up): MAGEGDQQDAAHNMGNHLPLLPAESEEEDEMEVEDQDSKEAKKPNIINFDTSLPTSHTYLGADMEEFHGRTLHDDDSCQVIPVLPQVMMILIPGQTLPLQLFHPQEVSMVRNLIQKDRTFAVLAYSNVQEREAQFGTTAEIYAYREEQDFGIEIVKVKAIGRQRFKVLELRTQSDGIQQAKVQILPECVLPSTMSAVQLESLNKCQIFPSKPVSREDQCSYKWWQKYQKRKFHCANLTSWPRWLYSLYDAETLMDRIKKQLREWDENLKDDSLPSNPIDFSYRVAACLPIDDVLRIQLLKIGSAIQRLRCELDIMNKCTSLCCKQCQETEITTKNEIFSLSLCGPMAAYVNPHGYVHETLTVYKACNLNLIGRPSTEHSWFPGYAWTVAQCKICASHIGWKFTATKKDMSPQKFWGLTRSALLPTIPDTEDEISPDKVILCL
The protein remaining of `O=C1CCC(N2Cc3c(ccc4c3OCC43CCC(Oc4ccccc4)CC3)C2=O)C(=O)N1` (stereo not shown) is reported as 68.3%.
For `O=C1CCC(N2Cc3c(ccc4c3OCC43CCC(Cc4ccccc4)CC3)C2=O)C(=O)N1` (stereo not shown), the protein remaining was 89.8%.
The protein remaining of `O=C1CCC(N2Cc3c(ccc4c3OCCC43CCN(Cc4ccccc4)CC3)C2=O)C(=O)N1` (stereo not shown) is reported as 68.6%.

Study 5 — technique: competition with immobilised ligand; concentration: 1 µM
Structure (SMILES): O=C(Nc1ccc(Oc2ccc(F)cc2)cc1)N1CCc2ncccc2[C@H]1c1ccc(F)cc1
Phosphatidylinositol 4-kinase beta (PI4KB, Homo sapiens, UniProt Q9UBF8); cell-free assay — remaining binding: 75%.
Vascular endothelial growth factor receptor 3 (FLT4, Homo sapiens, UniProt P35916); cell-free assay — remaining binding: 96%.
The remaining binding was 100% (ALK tyrosine kinase receptor (ALK, Homo sapiens, UniProt Q9UM73); cell-free assay).
Focal adhesion kinase 1 (PTK2, Homo sapiens, UniProt Q05397); cell-free assay — remaining binding: 100%.
It gave 74% for remaining binding (Ribosomal protein S6 kinase alpha-5, C-terminal kinase domain (RPS6KA5, Homo sapiens, UniProt O75582); cell-free assay).
The remaining binding was 96% (Receptor-interacting serine/threonine-protein kinase 2 (RIPK2, Homo sapiens, UniProt O43353); cell-free assay).
Mitogen-activated protein kinase 6 (MAPK6, Homo sapiens, UniProt Q16659); cell-free assay — remaining binding: 98%.
It gave 100% for remaining binding (Protein-tyrosine kinase 6 (PTK6, Homo sapiens, UniProt Q13882); cell-free assay).
It gave 100% for remaining binding (Cyclin-dependent kinase 5 (CDK5, Homo sapiens, UniProt Q00535); cell-free assay).
For Beta-adrenergic receptor kinase 1 (GRK2, Homo sapiens, UniProt P25098); cell-free assay: remaining binding read 92%.
For Glycogen synthase kinase-3 alpha (GSK3A, Homo sapiens, UniProt P49840); cell-free assay: remaining binding read 95%.
Cyclin-dependent kinase 11B (CDK11B, Homo sapiens, UniProt P21127); cell-free assay — remaining binding: 89%.
Leucine-rich repeat serine/threonine-protein kinase 2 (LRRK2, Homo sapiens, UniProt Q5S007, G2019S); cell-free assay — remaining binding: 100%.
For Cyclin-dependent kinase 7 (CDK7, Homo sapiens, UniProt P50613); cell-free assay: remaining binding read 77%.
The remaining binding was 87% (Serine/threonine-protein kinase PLK3 (PLK3, Homo sapiens, UniProt Q9H4B4); cell-free assay).
The remaining binding was 100% (Tyrosine-protein kinase JAK1, JH2 (JAK1, Homo sapiens, UniProt P23458); cell-free assay).
It gave 97% for remaining binding (Receptor-type tyrosine-protein kinase FLT3 (FLT3, Homo sapiens, UniProt P36888, R834Q); cell-free assay).
For Tyrosine-protein kinase ABL1, non-phosphorylated (ABL1, Homo sapiens, UniProt P00519, T315I); cell-free assay: remaining binding read 98%.
The remaining binding was 96% (Cyclin-dependent kinase 4 (CDK4, Homo sapiens, UniProt P11802); cell-free assay).
The remaining binding was 100% (Bone morphogenetic protein receptor type-1A (BMPR1A, Homo sapiens, UniProt P36894); binding).

Some of these lines once more (study 5):
Vascular endothelial growth factor receptor 3 (FLT4, Homo sapiens, UniProt P35916); cell-free assay — remaining binding: 96%.
The remaining binding was 100% (ALK tyrosine kinase receptor (ALK, Homo sapiens, UniProt Q9UM73); cell-free assay).
Focal adhesion kinase 1 (PTK2, Homo sapiens, UniProt Q05397); cell-free assay — remaining binding: 100%.
